Experimental data collected from several papers.
Compare with care: the assays were run in different laboratories. ± gives the spread as reported.

SMILES | assay | test system | conditions | how to read | measurement | value
O=P1(NCCCl)NCCCO1 (centres unmarked) |  | rat, plasma | intravenous, 10 mg/kg, added: ketoconazole 40 mg/kg oral 50 min before |  | Tmax | 3.67 ± 1.21 h
CCCC[C@@H]1NC(=O)[C@H](Cc2ccc(O)cc2)NC(=O)[C@@H]2CCCN2C(=O)[C@H](CC(=O)O)NC(=O)[C@H](C)NC(=O)[C@H](Cc2ccccc2)NC(=O)[C@@H]2CSCCC(=O)N3CN(CN(C3)C(=O)CCSC[C@@H](C(=O)N[C@@H](C)C(N)=O)NC1=O)C(=O)CCSC[C@H](NC(C)=O)C(=O)N[C@@H](CC(C)(C)C)C(=O)N1CCC[C@H]1C(=O)N[C@@H](CCC(=O)O)C(=O)N[C@H](CCCCNC(=O)CCc1cn(CCOCCOCCOCCN(CCOCCOCCOCCC(=O)N[C@H]3CSCCC(=O)N4CN5CN(C4)C(=O)CCSC[C@H](NC(=O)[C@@H](CC(=O)O)NC(=O)[C@H](Cc4cccc6ccccc46)NC(=O)[C@@H]4CCCN4C3=O)C(=O)N[C@@H](CCSC)C(=O)N[C@@H](CCCCNC(=N)N)C(=O)N[C@@H](CC(=O)O)C(=O)N[C@@H](Cc3c[nH]c4ccccc34)C(=O)N[C@@H](CO)C(=O)N[C@@H]([C@@H](C)O)C(=O)N3CCC[C@H]3C(=O)N3C[C@H](O)C[C@H]3C(=O)N[C@@H](Cc3c[nH]c4ccccc34)C(=O)N[C@H](C(N)=O)CSCCC5=O)CCOCCOCCOCCn3cc(CCC(=O)NCCCC[C@H]4NC(=O)[C@H](CCC(=O)O)NC(=O)[C@@H]5CCCN5C(=O)[C@H](CC(C)(C)C)NC(=O)[C@@H](NC(C)=O)CSCCC(=O)N5CN6CN(C5)C(=O)CCSC[C@H](NC(=O)[C@H](Cc5ccc(O)cc5)NC(=O)[C@@H]5CCCN5C4=O)C(=O)N[C@@H](Cc4ccccc4)C(=O)N[C@@H](C)C(=O)N[C@@H](CC(=O)O)C(=O)N4CCC[C@H]4C(=O)N[C@@H](Cc4ccc(O)cc4)C(=O)N[C@@H](CCCC)C(=O)N[C@H](C(=O)N[C@@H](C)C(N)=O)CSCCC6=O)nn3)nn1)C(=O)N1CCC[C@H]1C(=O)N[C@@H](Cc1ccc(O)cc1)C(=O)N2 |  | cynomolgus monkey, plasma | intravenous, 1 mg/kg, infusion |  | clearance | 3.3 mL/min/kg
CN(C)C(CNC(=O)Nc1cc(C(F)(F)F)ccc1N1CCOCC1)c1ccncc1 (centres unmarked) |  | mouse, serum | intraperitoneal, 360 mg/kg single dose |  | serum globulin | 1.2 g/dL
CC(C)(O)c1ccccc1CC[C@H](c1cccc(/C=C/c2ccc3ccc(Cl)cc3n2)c1)[S+]([O-])CC1(CC(=O)O)CC1 (some centres unmarked) |  | human liver microsomes | 1 µM, 30 min, 0.5 mg/mL protein |  | percent metabolized | 18.5%
CC(=CCC(O)C(C)=Cc1csc(C)n1)CC=CC(C)C(O)C(C)C(=O)C(C)(C)C(O)CC(=O)O (centres unmarked) |  | human, plasma | intravenous infusion, 42 mg/m2 KOS-1584, 3 h infusion, cycle 1 |  | Cmax | 30.1 ± 15.4 ng/mL
CC(C)[C@H](NC(=O)CNC(=O)[C@H](CCC(N)=O)NC(=O)[C@H](C)N)C(=O)O |  | healthy male volunteers | intravenous, 15 mg/kg/h, 2 h, added: LPS 2 ng/kg |  | subjects with serious AE | 0%
COc1cc2ccnc(Cc3ccc(O[11CH3])c(OC)c3)c2cc1OC | PET | rhesus macaque, cerebellum | intravenous, 3 min |  | peak SUV | 2.2
CC(C)C[C@H](NC(=O)[C@H](CCCCN)NC(=O)[C@H](CCC(=O)O)NC(=O)[C@H](C)NC(=O)[C@@H](NC(=O)[C@H](CCCCN)NC(=O)[C@H](CC(=O)O)NC(=O)[C@H](Cc1ccc(O)cc1)NC(=O)[C@H](Cc1ccccc1)NC(=O)[C@H](C)NC(=O)[C@H](CCCCN)NC(=O)[C@H](CC(C)C)NC(=O)[C@H](Cc1c[nH]c2ccccc12)NC(=O)[C@@H](N)CC(=O)O)C(C)C)C(=O)N[C@@H](CCCCN)C(=O)N[C@@H](CCC(=O)O)C(=O)N[C@@H](C)C(=O)N[C@@H](Cc1ccccc1)C(=O)N1CCC[C@H]1C(=O)N[C@@H](CC(=O)O)C(=O)N[C@@H](Cc1c[nH]c2ccccc12)C(=O)N[C@@H](C)C(=O)N[C@@H](CCCCN)C(=O)N[C@@H](C)C(=O)N[C@@H](C)C(=O)N[C@@H](Cc1ccc(O)cc1)C(=O)N[C@@H](CC(=O)O)C(=O)N[C@@H](CCCCN)C(=O)N[C@@H](C)C(=O)N[C@@H](C)C(=O)N[C@@H](CCC(=O)O)C(=O)N[C@@H](CCCCN)C(=O)N[C@@H](C)C(=O)N[C@@H](CCCCN)C(=O)N[C@@H](CCC(=O)O)C(=O)N[C@@H](C)C(=O)N[C@@H](C)C(=O)O |  | cynomolgus monkey female, plasma | intravenous infusion, 8 mg/kg every other day, day 27 |  | clearance | 0.233 mL/min/kg
CCN(Cc1ccccc1)C(=O)CCc1nc(CN2CCN(C(=O)Cc3ccc(OC)c(OC)c3)CC2)no1 | LC-MS | rat, DRG | intravenous, 1 mg/kg, 5 min |  | concentration | 280 ± 32 ng/g
[2H]C([2H])([2H])C([2H])([2H])C([2H])([2H])OC(C(=O)OC1CCNCC1)(c1ccccc1)c1ccccc1 | item: diarrhea | healthy Japanese male | oral, 18 mg, 16 days, multiple ascending dose |  | adverse drug reactions | 14.3%
c1ccc(C2(CCNC3CCC4(SCCS4)c4ccccc43)CCOC3(CCCC3)C2)nc1 (centres unmarked) |  | rat | intravenous, 0.5 mg/kg |  | AUC(0-24 h) | 453 ng·h/mL
CCN(CC)CCOc1ccc(-c2nnn(Cc3ccc(OC)cc3)c2N)cc1 | in vitro incubation | human plasma | 120 min |  | plasma stability | stable
CCCC[C@H]1C(=O)N(C)[C@@H](CCCC)C(=O)N[C@@H](CCCNC(=O)CN2CCN(CC(=O)O)CCN(CC(=O)O)CCN(CC(=O)O)CC2)C(=O)N[C@H](C(=O)NCC(N)=O)CSCC(=O)N[C@@H](Cc2ccc(O)cc2)C(=O)N(C)[C@@H](C)C(=O)N[C@@H](CC(N)=O)C(=O)N2CCC[C@H]2C(=O)N[C@@H](Cc2c[nH]cn2)C(=O)N[C@@H](CC(C)C)C(=O)N(C)CC(=O)N[C@@H](Cc2c[nH]c3ccccc23)C(=O)N[C@@H](CO)C(=O)N[C@@H](Cc2c[nH]c3ccccc23)C(=O)N1C [gallium-68 labelled] | static PET | NOD/SCID mice, CHO-hPD-L1 xenograft, CHO-hPD-L1 tumour | intravenous, 1 h post injection, after five PBS treatments |  | tumour uptake | 5.9 ± 1.08 %ID/g
CNC(=O)[C@H](CCC(=O)NCCCC[C@@H]1NC(=O)[C@@H](Cc2ccccc2)NC(=O)[C@H](CC(=O)O)NC(=O)CNC(=O)[C@H](CCCNC(=N)N)NC1=O)NC(=O)CN1CCN(CC(=O)O)CCN(CC(=O)O)CCN(CC(=O)O)CC1 [indium-111 labelled] |  | female BALB/c nude mice, SK-RC-52 xenograft, tumour | 0.5 µg, 2 h post injection, added: excess unlabelled DOTA-E-[c(RGDfK)]2 50 µg |  | radioactivity concentration | decreased
COc1ccc(C)cc1NC(=O)OC1CC2CCCC(C1)N2Cc1ccc(CC[18F])cc1 (centres unmarked) |  | BALB/c mice, EMT6 tumour | 1 h | reference: tumour over lung | tumour to tissue ratio | 0.42
O=C(NC1CCCCC1)Oc1ccc(O)c(-c2ccccc2)c1 |  | rat plasma |  |  | log hydrolysis rate constant | -3.14
CSCC[C@H](NC(=O)CNC(=O)[C@H](CC(=O)O)NC(=O)[C@@H](NC(=O)[C@@H](NC(=O)[C@@H](NC(=O)CNC(=O)[C@H](CCC(N)=O)NC(=O)[C@H](CCSC)NC(=O)[C@H](CC(=O)O)NC(=O)[C@H](C)NC(=O)[C@H](C)NC(=O)[C@@H](NC(=O)[C@H](CO)NC(=O)[C@@H](N)CC(C)C)[C@@H](C)O)C(C)C)C(C)C)[C@@H](C)O)C(=O)N[C@@H](C)C(=O)N[C@@H](CO)C(=O)NCC(=O)N[C@@H](CC(C)C)C(=O)N[C@@H](CC(=O)O)C(=O)N[C@@H](CCCCN)C(=O)N[C@@H](CC(=O)O)C(=O)N[C@@H](Cc1ccc(O)cc1)C(=O)N[C@@H](CC(C)C)C(=O)N[C@@H](CCCCN)C(=O)N1CCC[C@H]1C(=O)N[C@@H](CC(=O)O)C(=O)N[C@@H](CC(=O)O)C(=O)O |  | human, serum | intravenous, 4.16 mg/kg, patients, infusion |  | clearance | 18.7 mL/min/kg
N#Cc1c(O)c(Cl)c(Cl)c(C#N)c1Cl |  | human, plasma | dose not given, 0 h, ABCG2 p.Q141K heterozygous | reference: homozygous reference allele | plasma concentration | increased
Cc1ccc(/C=C/C(=O)O)cc1-c1cc2c(cc1C)C(C)(C)CCC2(C)C |  | Sprague-Dawley rat, male, plasma | oral, 100 mg/kg, 24 h, sesame oil vehicle |  | HDL level | 43 ± 9.5 mg/dL
[3H]c1sc(C)nc1C=C(C)C1CC2C(CCCC(C)C(O)C(C)C(=O)C(C)(C)C(O)CC(=O)O1)N2CCO (centres unmarked) | whole-body autoradiography | CD2F1 mice, M109 FR− tumour periphery | intravenous, 2.2 nmol/kg, 24 h |  | radioactivity in tissue | 1.6 ± 0.7 µg-eq/g
CCCCCCCCCCCCC(=O)O.O=C1CCCC2C3CCCN4CCCC(CN12)C34 (centres unmarked) | electrical conductivity | water | 293.15 K |  | entropic term −TΔS of aggregation | -7.56 kcal/mol
COc1cc(NC(=O)C(=O)c2c(C)n(Cc3ccc(Cl)cc3)c3ccc(C)cc23)ccn1 |  | female cynomolgus monkey, plasma | intravenous, 1 mg/kg |  | clearance | 10.7 mL/min/kg
CC[C@H](C)C(=O)N1CCC(NC(=O)Nc2ccc(OC(F)(F)F)c(F)c2)CC1 |  | human | oral, 8 mg, fed, geometric mean |  | Cmax | 55.6 ng/mL
CCCCCc1cc(O)c2c(c1)OC(C)(C)C1CCC(C(=O)OC3OC(C(=O)O)C(O)C(O)C3O)=CC21 (centres unmarked) |  | human liver and HEK293 microsomes | 50 µM, 30 min | reference: other cannabinoids | fu,inc relative to other cannabinoids | ~10 fold
CC(C)[C@H](NC(=O)CNC(=O)[C@H](CCC(N)=O)NC(=O)[C@H](C)N)C(=O)O |  | human | single dose, 1 mg/kg, unlikely related or unrelated |  | unrelated adverse events | 0%
CSCC[C@@H]1NC(=O)[C@@H]2CSSC[C@H](NC(=O)[C@H](CO)NC(=O)[C@H](C)N)C(=O)N[C@@H](CCCNC(=N)N)C(=O)N[C@@H]([C@@H](C)O)C(=O)N3CCC[C@H]3C(=O)N[C@@H](CCCCN)C(=O)N[C@@H](CC(=O)O)C(=O)N[C@H]3CSSC[C@H](NC(=O)[C@H](CCCCN)NC(=O)[C@H](CCCNC(=N)N)NC(=O)[C@H](CC(N)=O)NC1=O)C(=O)N[C@@H](CCCCN)C(=O)N[C@H]1CSSC[C@H](NC(=O)[C@@H]4CCCN4C(=O)[C@H](CC(=O)O)NC(=O)[C@H](C)NC3=O)C(=O)N[C@@H](C)C(=O)N[C@@H](CCCCN)C(=O)N[C@@H](CCC(=O)O)C(=O)N[C@@H]([C@@H](C)O)C(=O)NCC(=O)N[C@@H](CSSC[C@@H](C(N)=O)NC(=O)[C@H](CCCNC(=N)N)NC(=O)[C@H](CC(N)=O)NC1=O)C(=O)N1CCC[C@H]1C(=O)N[C@@H](Cc1ccc(O)cc1)C(=O)NCC(=O)N[C@@H](CCCCN)C(=O)N2 |  | DA rat, pristane-induced arthritis, serum | subcutaneous, 0.1 mg/kg every other day, end of 21-day trial |  | AST | 112 U/L
C[C@H]1C(OC(=O)C(C)(C)C)O[C@@H]2O[C@@]3(C)CC[C@H]4[C@H](C)CCC1[C@@]24OO3 (some centres unmarked) |  | Tg(fli1:EGFP) zebrafish embryos | 10 µg/mL, up to 48 hpf |  | dead embryos | 1 count
CN[C@](C)(C[18F])C(=O)O |  | SCID mouse U87 xenograft, brain | 30 min, post injection |  | tissue uptake | 0.4 ± 0.03 %ID/g
COC(=O)C[C@](O)(CCCC(C)(C)OC(C)=O)C(=O)O[C@@H]1C(OC)=C[C@]23CCCN2CCc2cc4c(cc2[C@H]13)OCO4 |  | CD1 mouse, kidney | subcutaneous, 1 mg/kg, 0.5 h |  | tissue concentration | 679 ng/mL

Repeated from above:
SMILES | assay | test system | conditions | how to read | measurement | value
COc1cc2ccnc(Cc3ccc(O[11CH3])c(OC)c3)c2cc1OC | PET | rhesus macaque, cerebellum | intravenous, 3 min |  | peak SUV | 2.2
CC(C)C[C@H](NC(=O)[C@H](CCCCN)NC(=O)[C@H](CCC(=O)O)NC(=O)[C@H](C)NC(=O)[C@@H](NC(=O)[C@H](CCCCN)NC(=O)[C@H](CC(=O)O)NC(=O)[C@H](Cc1ccc(O)cc1)NC(=O)[C@H](Cc1ccccc1)NC(=O)[C@H](C)NC(=O)[C@H](CCCCN)NC(=O)[C@H](CC(C)C)NC(=O)[C@H](Cc1c[nH]c2ccccc12)NC(=O)[C@@H](N)CC(=O)O)C(C)C)C(=O)N[C@@H](CCCCN)C(=O)N[C@@H](CCC(=O)O)C(=O)N[C@@H](C)C(=O)N[C@@H](Cc1ccccc1)C(=O)N1CCC[C@H]1C(=O)N[C@@H](CC(=O)O)C(=O)N[C@@H](Cc1c[nH]c2ccccc12)C(=O)N[C@@H](C)C(=O)N[C@@H](CCCCN)C(=O)N[C@@H](C)C(=O)N[C@@H](C)C(=O)N[C@@H](Cc1ccc(O)cc1)C(=O)N[C@@H](CC(=O)O)C(=O)N[C@@H](CCCCN)C(=O)N[C@@H](C)C(=O)N[C@@H](C)C(=O)N[C@@H](CCC(=O)O)C(=O)N[C@@H](CCCCN)C(=O)N[C@@H](C)C(=O)N[C@@H](CCCCN)C(=O)N[C@@H](CCC(=O)O)C(=O)N[C@@H](C)C(=O)N[C@@H](C)C(=O)O |  | cynomolgus monkey female, plasma | intravenous infusion, 8 mg/kg every other day, day 27 |  | clearance | 0.233 mL/min/kg
CCN(Cc1ccccc1)C(=O)CCc1nc(CN2CCN(C(=O)Cc3ccc(OC)c(OC)c3)CC2)no1 | LC-MS | rat, DRG | intravenous, 1 mg/kg, 5 min |  | concentration | 280 ± 32 ng/g
